Assay results from different studies.
Numbered parts are unrelated; each lists some results of a single study.
Chain of UniProt Q9Y3S1 (whole entry, looked up): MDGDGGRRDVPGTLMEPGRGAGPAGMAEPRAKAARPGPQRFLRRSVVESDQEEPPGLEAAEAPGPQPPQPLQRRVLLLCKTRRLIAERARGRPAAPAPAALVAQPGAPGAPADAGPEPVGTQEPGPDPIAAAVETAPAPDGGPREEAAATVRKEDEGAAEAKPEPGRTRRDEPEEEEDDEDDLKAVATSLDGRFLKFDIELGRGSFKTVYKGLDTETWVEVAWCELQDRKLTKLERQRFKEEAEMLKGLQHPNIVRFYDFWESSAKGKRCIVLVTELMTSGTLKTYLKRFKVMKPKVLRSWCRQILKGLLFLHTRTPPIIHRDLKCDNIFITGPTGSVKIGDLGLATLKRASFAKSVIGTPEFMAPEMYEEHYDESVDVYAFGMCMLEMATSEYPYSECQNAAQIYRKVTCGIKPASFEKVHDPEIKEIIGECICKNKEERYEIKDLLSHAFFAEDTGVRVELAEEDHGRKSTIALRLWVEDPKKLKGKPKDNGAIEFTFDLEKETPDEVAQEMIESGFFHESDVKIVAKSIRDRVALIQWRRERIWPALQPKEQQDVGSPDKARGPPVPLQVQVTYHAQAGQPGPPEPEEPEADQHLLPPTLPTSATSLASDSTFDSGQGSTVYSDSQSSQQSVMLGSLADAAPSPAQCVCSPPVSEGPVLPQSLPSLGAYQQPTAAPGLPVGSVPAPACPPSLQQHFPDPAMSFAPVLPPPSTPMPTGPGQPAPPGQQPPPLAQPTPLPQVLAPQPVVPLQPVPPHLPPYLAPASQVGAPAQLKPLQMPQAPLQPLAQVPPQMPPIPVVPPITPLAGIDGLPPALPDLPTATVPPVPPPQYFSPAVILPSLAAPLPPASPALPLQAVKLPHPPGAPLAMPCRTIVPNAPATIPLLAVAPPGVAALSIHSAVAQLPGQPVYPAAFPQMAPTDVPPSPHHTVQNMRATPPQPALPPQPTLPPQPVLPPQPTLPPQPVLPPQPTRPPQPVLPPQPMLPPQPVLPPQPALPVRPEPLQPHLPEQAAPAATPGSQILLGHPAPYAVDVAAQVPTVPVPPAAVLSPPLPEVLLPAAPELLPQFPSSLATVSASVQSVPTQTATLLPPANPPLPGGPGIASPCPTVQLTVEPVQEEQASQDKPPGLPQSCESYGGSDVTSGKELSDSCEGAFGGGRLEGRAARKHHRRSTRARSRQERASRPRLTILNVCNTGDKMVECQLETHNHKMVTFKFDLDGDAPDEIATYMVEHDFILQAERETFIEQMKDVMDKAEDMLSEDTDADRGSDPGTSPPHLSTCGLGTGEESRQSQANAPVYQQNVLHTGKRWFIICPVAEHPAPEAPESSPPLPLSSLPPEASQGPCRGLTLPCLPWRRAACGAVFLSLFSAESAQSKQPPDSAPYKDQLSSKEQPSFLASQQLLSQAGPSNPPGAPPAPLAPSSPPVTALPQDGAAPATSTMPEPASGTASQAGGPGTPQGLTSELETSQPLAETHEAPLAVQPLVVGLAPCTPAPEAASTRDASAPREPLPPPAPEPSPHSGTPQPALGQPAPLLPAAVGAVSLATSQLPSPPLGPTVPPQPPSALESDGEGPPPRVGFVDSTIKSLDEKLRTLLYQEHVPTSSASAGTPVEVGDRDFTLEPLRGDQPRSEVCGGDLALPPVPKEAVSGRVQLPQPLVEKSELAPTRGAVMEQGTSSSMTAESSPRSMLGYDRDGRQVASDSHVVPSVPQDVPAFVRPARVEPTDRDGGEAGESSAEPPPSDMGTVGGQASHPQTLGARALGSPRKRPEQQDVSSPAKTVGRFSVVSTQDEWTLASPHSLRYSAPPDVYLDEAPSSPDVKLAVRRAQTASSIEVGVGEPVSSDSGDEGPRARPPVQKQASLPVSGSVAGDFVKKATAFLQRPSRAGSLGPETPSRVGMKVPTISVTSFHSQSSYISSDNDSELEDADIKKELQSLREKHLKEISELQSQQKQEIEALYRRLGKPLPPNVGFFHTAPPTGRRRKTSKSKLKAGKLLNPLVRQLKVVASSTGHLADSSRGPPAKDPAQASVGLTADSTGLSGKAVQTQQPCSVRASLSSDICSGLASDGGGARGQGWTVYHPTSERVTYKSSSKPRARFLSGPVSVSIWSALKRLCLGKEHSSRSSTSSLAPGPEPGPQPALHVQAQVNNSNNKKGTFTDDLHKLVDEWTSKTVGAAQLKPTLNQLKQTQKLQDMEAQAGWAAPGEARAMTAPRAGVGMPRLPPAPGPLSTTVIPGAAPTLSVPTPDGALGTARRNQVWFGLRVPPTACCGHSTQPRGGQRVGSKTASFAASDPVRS

Series 1 — method: protein-binding microarray; form: double-stranded DNA, one strand shown; medium: in vitro; concentration: not given; reading: higher = stronger binding
Target: Max dimerization protein 1, bHLH-zipper, MAX partner unstated (MXD1, Homo sapiens, UniProt Q05195, residues 56-136)
Setting: k-mer, scored over probes, only values ≥0.25
Construct (chain): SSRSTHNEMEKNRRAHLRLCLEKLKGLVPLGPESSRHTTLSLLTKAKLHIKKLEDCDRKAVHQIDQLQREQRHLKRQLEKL
| Strand | E-score |
| --- | --- |
| AAAAACAC | 0.29 |
| ATCCACAT | 0.395 |
| ATCATGTC | 0.274 |
| GGAGTGCA | 0.274 |
| AAACACAT | 0.311 |
| CACCCTCC | 0.283 |
| CATGTACA | 0.253 |
| GCGTGACC | 0.303 |

Series 2 — method: aptamer microarray, sandwich; form: DNA with 2'F-ANA; medium: in vitro; concentration: 200 nM; with: Cy3 exosite-II aptamer, 400 nM; reading: higher = stronger binding; strand: GGTTGGTGTGGTTGG
Target: Prothrombin, mature alpha-thrombin (F2, Homo sapiens, UniProt P00734)
Setting: whole 15-mer aptamer, many near background
| Modification | mean fluorescence intensity |
| --- | --- |
| 2'F-ANA at 2 3 5 7 8 13 15 | 77.2 a.u. |
| 2'F-ANA at 2 4 6 11 15 | 202 a.u. |
| 2'F-ANA at 1 3 6 8 9 11 12 14 15 | 95.6 a.u. |
| 2'F-ANA at 1 3 4 5 6 8 11 12 | 103 a.u. |
| 2'F-ANA at 1 3 4 9 11 14 15 | 60.5 a.u. |
| 2'F-ANA at 3 4 6 7 8 9 10 14 15 | 196 a.u. |
| 2'F-ANA at 2 5 6 7 9 11 14 | 48.3 a.u. |
| 2'F-ANA at 2 3 4 5 6 8 10 13 14 | 79.4 a.u. |

Series 3 — method: competition protein-binding microarray; form: double-stranded DNA, one strand shown; medium: in vitro; concentration: 2 µM; with: Cbf1 competitor, 0.05 µM; reading: higher = stronger binding; all sequences stand within: … GTCTTGATTCGCTTGACGCTGCTG
Target: Phosphate system positive regulatory protein PHO4, full length, GST-tagged (PHO4, Saccharomyces cerevisiae, UniProt P07270, residues 1-312)
Setting: whole 60-bp probe, lowest competitor level
Residues (chain): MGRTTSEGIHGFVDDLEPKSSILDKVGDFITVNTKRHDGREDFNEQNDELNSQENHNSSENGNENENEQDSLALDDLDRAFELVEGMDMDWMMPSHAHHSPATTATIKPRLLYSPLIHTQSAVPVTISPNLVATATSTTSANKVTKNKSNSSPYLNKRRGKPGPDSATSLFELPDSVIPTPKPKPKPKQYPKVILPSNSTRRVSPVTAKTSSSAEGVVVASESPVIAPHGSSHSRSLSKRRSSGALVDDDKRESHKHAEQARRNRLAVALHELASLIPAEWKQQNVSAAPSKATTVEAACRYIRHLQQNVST
| Strand | fluorescence intensity [a.u.] |
| --- | --- |
| TCAGAAAAGACCATTTGCGTGCTTTTACCATTATGC | 6290 |
| CATTCGTTGGTTTATTATGTGACGGTTTTTAGACTT | 4030 |
| CTTCTGTAAATTTGTCACGTAACTTGACGCGCCCCG | 5030 |
| GTATAGTATCCACTTCGTGTGACAGTACTATAATCG | 6170 |
| TGCGCAACAACTTGCAGTGTGGGTGTATGTCTAGAA | 5780 |
| GCGAATAATATGTTTTGCGTGGGTATCCCAGGAGCG | 5070 |
| ATTGGGATAACCAGGCACACGCTAATGCGAGATAGC | 7390 |
| GGATGAAAAACATAAAATGTGACGGATAGTGCCACC | 5210 |

Further values, each from its own experiment
| SMILES | target | test | setting | scale | quantity | result |
| --- | --- | --- | --- | --- | --- | --- |
| Cn1sc(=O)n(Cc2ccccc2)c1=O | Serine/threonine-protein kinase WNK2 (WNK2, Homo sapiens, UniProt Q9Y3S1) | enzyme activity, inhibitor | 0.5 µM | baseline: control | remaining activity | 99.1% |

For quick reference, copied from above (series 1):
| Strand | E-score |
| --- | --- |
| AAAAACAC | 0.29 |
| ATCCACAT | 0.395 |
| ATCATGTC | 0.274 |
| GGAGTGCA | 0.274 |
